Assay results pooled from the literature.
Every numbered part comes from another study and shows a few of its results, in no order. Substitutions count along the parent as printed.

Study 1
Target: CCNF, cyclin fold, Cln2 fusion (human)
Method: yeast growth competition, sequencing
Sample: yeast
Notes: strong parent motif
Relative to: not given
Reading: higher = stronger binding
Starting sequence: viral docking peptide; KGVKRKLFAEDSS
| Substitution | normalised enrichment score |
| --- | --- |
| KGVKRKLFANDSS [E10N] | 7.86 |
| KGVKRKLFAWDSS [E10W] | 7.58 |
| KGVKRKLFVEDSS [A9V] | 8.21 |
| KGVQRKLFAEDSS [K4Q] | 8.42 |
| KGVKRMLFAEDSS [K6M] | 7.75 |
| KGVWRKLFAEDSS [K4W] | 5.94 |
| KGVKRKLFLEDSS [A9L] | 8.3 |
| KGEKRKLFAEDSS [V3E] | 1.27 |

Study 2
Target: UDP-N-acetylglucosamine--peptide N-acetylglucosaminyltransferase 110 kDa subunit (OGT, Homo sapiens, UniProt O15294)
Effect on: binding
Method: phage display NGS
Molecule type: peptide
Tested at: concentration not given
Notes: normalized abundance
Relative to: input library
Construct (O15294 1-1046): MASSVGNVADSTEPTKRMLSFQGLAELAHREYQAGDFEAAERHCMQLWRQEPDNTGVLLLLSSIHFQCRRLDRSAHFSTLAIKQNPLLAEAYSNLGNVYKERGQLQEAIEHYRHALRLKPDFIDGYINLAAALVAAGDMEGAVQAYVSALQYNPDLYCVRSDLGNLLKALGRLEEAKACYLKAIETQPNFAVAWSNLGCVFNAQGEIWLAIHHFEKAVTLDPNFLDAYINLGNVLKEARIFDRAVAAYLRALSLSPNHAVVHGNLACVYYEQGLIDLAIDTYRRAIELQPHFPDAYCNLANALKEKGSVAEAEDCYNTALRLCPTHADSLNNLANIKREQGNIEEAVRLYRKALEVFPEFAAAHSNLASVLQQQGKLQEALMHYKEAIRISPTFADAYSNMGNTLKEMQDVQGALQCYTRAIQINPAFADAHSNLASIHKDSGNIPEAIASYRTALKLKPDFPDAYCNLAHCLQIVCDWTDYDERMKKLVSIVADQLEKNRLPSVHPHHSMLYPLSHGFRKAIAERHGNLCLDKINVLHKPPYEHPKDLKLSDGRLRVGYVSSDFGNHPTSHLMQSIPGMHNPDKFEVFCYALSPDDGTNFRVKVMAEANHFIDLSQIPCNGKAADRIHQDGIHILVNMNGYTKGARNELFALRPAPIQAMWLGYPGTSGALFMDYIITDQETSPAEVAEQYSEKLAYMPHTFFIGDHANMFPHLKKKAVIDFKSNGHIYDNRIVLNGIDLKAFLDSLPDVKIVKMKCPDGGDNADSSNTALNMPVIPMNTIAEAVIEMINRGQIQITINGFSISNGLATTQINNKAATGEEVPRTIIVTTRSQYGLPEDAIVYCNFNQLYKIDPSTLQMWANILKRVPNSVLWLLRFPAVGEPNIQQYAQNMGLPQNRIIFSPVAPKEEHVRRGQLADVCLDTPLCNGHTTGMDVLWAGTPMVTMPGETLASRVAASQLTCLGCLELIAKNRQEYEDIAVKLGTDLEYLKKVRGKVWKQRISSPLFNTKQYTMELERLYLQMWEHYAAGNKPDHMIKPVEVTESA
| Molecule | enrichment fold change |
| --- | --- |
| VDIGTTYMPFYQITN | 9.57 |
| DTYEPVYQITPRADT | 4.26 |
| SSYMPQYQISFLKKE | 64.9 |
| DDWRPLYQIIYTSQD | 69.3 |
| HTMWHAEHFTRYDVH | 6.01 |
| FLPQYKIEVPFSVYK | 6.28 |
| HYRSHHTPTQYYYAN | 6.75 |
| NYPVHNHDFFEHHHI | 64.7 |

Study 3
Target: tungstate, free oxyanion
Method: microfluidic competitive inhibition
Sample: in vitro, cell-free expressed
Tested at: not given
Notes: derived from inhibition constants, unchanged parent 2230 nM
Reading: lower = stronger binding
Starting sequence: PafA, mature enzyme, eGFP fusion (Elizabethkingia meningoseptica, UniProt Q9KJX5); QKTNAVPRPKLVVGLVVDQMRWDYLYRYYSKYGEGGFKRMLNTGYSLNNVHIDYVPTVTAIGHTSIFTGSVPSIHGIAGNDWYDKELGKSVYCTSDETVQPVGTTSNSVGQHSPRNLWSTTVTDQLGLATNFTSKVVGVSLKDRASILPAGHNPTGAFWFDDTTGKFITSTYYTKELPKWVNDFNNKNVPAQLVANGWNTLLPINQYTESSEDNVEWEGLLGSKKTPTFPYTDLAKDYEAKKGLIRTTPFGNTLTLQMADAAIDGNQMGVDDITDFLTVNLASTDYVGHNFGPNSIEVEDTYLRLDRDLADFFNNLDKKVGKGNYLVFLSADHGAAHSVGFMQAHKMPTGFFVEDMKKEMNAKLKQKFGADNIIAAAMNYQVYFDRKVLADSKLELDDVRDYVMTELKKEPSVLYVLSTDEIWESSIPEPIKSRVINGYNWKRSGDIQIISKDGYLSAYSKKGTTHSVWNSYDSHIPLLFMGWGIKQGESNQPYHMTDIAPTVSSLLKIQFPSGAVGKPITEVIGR
| Substitution | oxyanion analog dissociation constant [µM] |
| --- | --- |
| I476V | 2.27 |
| R400G | 2.3 |
| T521V | 3.07 |
| F291V | 2.06 |
| L414G | 0.656 |
| G288V | 3.17 |
| T247G | 1.73 |
| Y472V | 2.67 |

Further values, each from its own experiment
| SMILES | target | effect on | method | tested at | endpoint | value |
| --- | --- | --- | --- | --- | --- | --- |
| CCC(=O)N[C@H]1CC[C@@H](C(=O)N(C)c2ccc(-c3nc4ccccc4o3)cc2)C1 | Calcium-dependent protein kinase 1 (CDPK1, Plasmodium falciparum, UniProt P62344) | cell-free assay | competition with immobilised ligand | 1 µM | remaining binding | 83% |

For quick reference, copied from above (study 2):
| Molecule | enrichment fold change |
| --- | --- |
| SSYMPQYQISFLKKE | 64.9 |
| DDWRPLYQIIYTSQD | 69.3 |
| HTMWHAEHFTRYDVH | 6.01 |
